Experimental data from different studies.
Values joined by “and” are separate records of one study, mostly repeats; a detail may differ. ± marks the error that the study gave.

Structure (SMILES) | target or system | assay | system | conditions | how to read | endpoint | value
CC(C)C(=O)OC[C@H]1O[C@@](C#N)(n2ccc(N)nc2=O)[C@H](O)[C@@H]1O | human PBM cells | – | – | – | – | CC50 | 52.3 ± 30.6 µM
CC(C)C[C@H](NC(=O)[C@@H](NC(=O)[C@H](CCCNC(=N)N)NC(=O)[C@H](CCC(N)=O)NC(=O)[C@H](Cc1ccccc1)NC(=O)[C@H](Cc1ccc(O)cc1)NC(=O)[C@H](CC(N)=O)NC(=O)[C@H](Cc1c[nH]c2ccccc12)NC(=O)[C@@H](NC(=O)[C@H](CCCNC(=N)N)NC(=O)[C@H](CCCCN)NC(=O)[C@@H](N)Cc1ccccc1)C(C)C)C(C)C)C(=O)N[C@H](C(=O)N[C@@H](CCCCN)C(=O)N[C@@H](CCCCN)C(=O)N[C@@H](Cc1ccc(O)cc1)C(N)=O)C(C)C | rat erythrocytes | – | – | 200 µM, 60 min, 37 °C | – | hemolysis | 62.7 ± 0.2%
C[C@@H]1CC[C@H]2[C@@H](C)C(=O)O[C@@H]3O[C@@]4(C)CC[C@@H]1[C@]32OO4 | HEK-293T | cell growth or viability, CCK-8 | – | 48 h | – | CC50 | > 100 µM
COc1cc(/C=C/C(=O)Oc2ccc(C(F)(F)F)c(C(F)(F)F)c2)ccc1OC(C)=O | HaCaT | cell growth or viability, MTT | – | 24 h | – | CC50 | 76.7 µM
CNC(=O)CC[C@H](Cc1ccccc1)NC(=O)[C@@H](Cc1ccc(Cl)cc1Cl)NC(=O)[C@H](N)Cc1ccccc1[N+](=O)[O-] | Huh-7-ACE2 | CellTiter-Glo | – | 0.00305 µM, 48 h, unit not given | reference: DMSO | viability | 0.923 and 0.937 and 1.03
COc1cc(/C=C/C(=O)Oc2cc(C(F)(F)F)cc(C(F)(F)F)c2)ccc1OC(C)=O | HaCaT | MTT | – | 24 h, 10% FBS | – | subcytotoxic concentration | 50 µM
CC(C)C[C@H](NC(=O)[C@@H](NC(=O)[C@H](CCCCN)NC(=O)[C@H](CCCCN)NC(=O)[C@H](CC(C)C)NC(=O)[C@H](Cc1c[nH]c2ccccc12)NC(=O)[C@H](CCCCN)NC(=O)[C@H](CC(C)C)NC(=O)[C@H](CC(C)C)NC(=O)[C@H](CCCCN)NC(=O)[C@H](CCCCN)NC(=O)[C@@H](N)C(C)C)C(C)C)C(N)=O | sheep red blood cells | 10% haemolysis | – | 1 h, 37 °C | – | minimum haemolytic concentration | 124 µM
C[C@H](NC(=O)Cc1cc(F)cc(F)c1)C(=O)N[C@@H]1C(=O)N(C)c2ccccc2-c2ccccc21 | NHDF | cell viability, CellTiter-Glo | – | 48 h, uninfected | – | CC50 | 49.3 µM
CCN(CC)CCCC[C@H](NC(=O)[C@H](CC(C)C)NC(=O)[C@H](C)N(C)C(=O)[C@H](Cc1ccccc1)NC(=O)c1ccc(C(C)(C)C)cc1)C(=O)N[C@@H](CO)C(=O)OC | HEK-293T | CellTiter-Glo | – | up to 100 µM, 48 h | – | cytotoxicity | not toxic
CC[C@H](C)[C@H](NC(=O)[C@H](CCC(=O)O)NC(=O)[C@H](CCCNC(=N)N)NC(=O)[C@H](CC(C)C)NC(=O)[C@H](CCCCN)NC(=O)CNC(=O)[C@H](CC(C)C)NC(=O)[C@H](Cc1ccccc1)NC(=O)[C@H](CC(N)=O)NC(=O)[C@H](CCCCN)NC(=O)[C@H](C)NC(=O)[C@H](CC(C)C)NC(=O)CNC(=O)[C@H](CO)NC(=O)[C@@H](NC(=O)[C@@H](NC(=O)[C@H](CO)NC(=O)[C@H](CCCNC(=N)N)NC(=O)[C@H](Cc1c[nH]c2ccccc12)NC(=O)[C@H](Cc1ccccc1)NC(=O)[C@H](CCCNC(=N)N)NC(=O)CNC(=O)[C@H](Cc1ccccc1)NC(=O)CN)C(C)C)[C@@H](C)CC)C(=O)N[C@@H](CO)C(=O)N[C@@H](CCC(N)=O)C(=O)N[C@@H](CC(C)C)C(=O)N[C@@H](Cc1ccc(O)cc1)C(=O)O | HUVEC | cytotoxicity, MTT | – | 24 h, 37 °C | – | IC50 | 5.62 µM
O=C(N[C@@H](Cc1ccccc1)C(=O)N[C@@H](C[C@@H]1CCNC1=O)C(O)S(=O)(=O)O)OCc1ccccc1 (stereo partly shown) | MRC5 | – | – | 5 (unit not given) | – | CC50 | 98.4 ± 7.6 µM
CNC(=O)C[C@H](Cc1ccccc1)NC(=O)[C@@H](Cc1ccc(Cl)cc1Cl)NC(=O)[C@H](N)Cc1ccccc1C#N | Huh-7-ACE2 | CellTiter-Glo | – | 0.391 µM, 48 h, unit not given | reference: DMSO | viability | 1.09 and 1.04 and 1.05
CC(=O)c1c(O)c(C)c(O)c2c1OC1=CC(=O)C(=C(C)NCCCC(=O)OC3OC4OC5(C)CCC6C(C)CCC(C3C)C46OO5)C(=O)C12C (stereo not shown) | L6 rat skeletal myoblasts | cytotoxicity, Alamar Blue | – | – | – | IC50 | 0.816 µM
CC[C@H](C)[C@H](NC(=O)[C@H](CC(C)C)NC(=O)[C@H](CCCCN)NC(=O)[C@H](CCSC)NC(=O)[C@H](Cc1ccccc1)NC(=O)[C@H](C)NC(=O)[C@H](C)NC(=O)[C@@H](N)CCSC)C(=O)N[C@@H](CCC(N)=O)C(=O)N[C@@H](Cc1ccccc1)C(=O)N[C@@H](CC(C)C)C(=O)N[C@@H](C)C(=O)N[C@H](C(=O)N[C@@H](CCCCN)C(=O)NCC(=O)N[C@@H](CCC(N)=O)C(=O)N[C@@H](CCCCN)C(=O)N[C@@H](Cc1ccc(O)cc1)C(=O)N[C@H](C(=O)N[C@@H](CO)C(=O)N[C@@H](CC(C)C)C(=O)N[C@@H](C)C(=O)N[C@@H](Cc1c[nH]c2ccccc12)C(=O)N[C@@H](CCCCN)C(N)=O)C(C)C)[C@@H](C)O | human erythrocytes | hemolysis | – | pH 7.2 | reference: water complete hemolysis | HD50 | 150 µg/mL
CC[C@H](C)[C@H](NC(=O)[C@H](C)NC(=O)[C@H](CCCCN)NC(=O)[C@H](CCCCN)NC(=O)[C@@H](N)CCCNC(=N)N)C(=O)N[C@@H](CCCCN)C(=O)N[C@@H](CC(C)C)C(=O)N[C@H](C(=O)N[C@@H](CCCCN)C(=O)N[C@@H](CCCCN)C(=O)N[C@@H](CC(C)C)C(=O)N[C@H](C(=O)N[C@@H](CCCCN)C(=O)N[C@@H](CCCCN)C(=O)N[C@@H](CC(C)C)C(=O)N[C@@H](CCCCN)C(=O)N[C@@H](CCCCN)C(=O)N[C@@H](C)C(=O)N[C@@H](CC(C)C)C(=O)N[C@@H](CCCCN)C(=O)O)C(C)C)C(C)C | HeLa | MTT | – | 16 mg/L | reference: untreated | cell growth | 82.6% and 77.5% and 73.7%
CC[C@H](C)[C@@H]1NC(=O)[C@H](C(C)C)NC(=O)[C@H](C(C)C)NC(=O)[C@H](CC(C)C)NC(=O)C[C@@H](C(=O)N[C@@H](Cc2c[nH]c3ccccc23)C(=O)N[C@@H](CC(N)=O)C(=O)N[C@@H](C)C(=O)N2CCC[C@H]2C(=O)NCC(=O)N[C@@H](Cc2c[nH]c3ccccc23)C(=O)N[C@@H](Cc2ccccc2)C(=O)O)NC(=O)[C@H](C)NC(=O)[C@H](CCC(N)=O)NC(=O)[C@H](C(C)C)NC1=O | MCF7 | – | – | 10 µM | – | cytotoxicity | not toxic
CNC(=O)C[C@H](Cc1ccncc1)NC(=O)[C@@H](Cc1cccc(Br)c1)NC(=O)[C@@H](N)Cc1ccsc1 | Huh-7-ACE2 | CellTiter-Glo | – | 0.000381 µM, 48 h, unit not given | reference: DMSO | viability | 0.952 and 1.03 and 1
CCN(CCCCOc1ccc(CCC(=O)N2CCC(Cc3ccccc3)CC2)cc1OC)Cc1ccccc1 | Caco-2 monolayer | – | – | 10 µM, 120 min | – | Papp(A-B) | 7.99 ± 0.68 ×10⁻⁶ cm/s
CC[C@H](C)[C@H](NC(=O)[C@@H](NC(=O)[C@H](CCCCN)NC(=O)[C@H](CCCCN)NC(=O)[C@@H](NC(=O)[C@H](Cc1c[nH]c2ccccc12)NC(=O)[C@H](CCCCN)NC(=O)[C@H](CCCCN)NC(=O)[C@H](CC(C)C)NC(=O)[C@H](CCCNC(=N)N)NC(=O)[C@H](Cc1ccccc1)NC(=O)[C@@H](N)C(C)C)[C@@H](C)CC)C(C)C)C(N)=O | sheep red blood cells | 10% haemolysis | – | 1 h, 37 °C | – | minimum haemolytic concentration | > 256 µM
COC(=O)c1cc2c(=O)n3ccccc3nc2n1Cc1ccccc1 | Vero | cytotoxicity, MTT | – | 24 (unit not given) | – | IC50 | 202 µM
O=C1NC2(CC2)COc2ncc(F)cc2[C@H]2COCCN2c2ccn3ncc1c3n2 | – | – | Sprague-Dawley rat, male, serum | oral, 5 mg/kg/day, 4 weeks daily, end of treatment | – | glucose | 8.6 ± 1.5 mmol/L
CC[C@H](C)[C@H](NC(=O)[C@H](C)NC(=O)[C@H](CCCCN)NC(=O)[C@H](CC(C)C)NC(=O)[C@@H](N)Cc1ccccc1)C(=O)N[C@@H](CCCCN)C(=O)N[C@@H](CCCCN)C(=O)N[C@@H](Cc1ccccc1)C(=O)NCC(=O)N[C@@H](CCCCN)C(=O)N[C@@H](CCC(=O)O)C(=O)N[C@@H](Cc1ccccc1)C(=O)N[C@@H](CCCCN)C(=O)N[C@@H](CCCCN)C(=O)N[C@H](C(=O)NCC(=O)N[C@@H](C)C(=O)N[C@@H](CCCCN)C(=O)N[C@@H](CC(C)C)C(=O)N[C@@H](CCCCN)C(=O)O)[C@@H](C)CC | HeLa | MTT | – | 64 mg/L | reference: untreated | cell growth | 96.8% and 90.4% and 93%

Some of these lines once more:
Structure (SMILES) | target or system | assay | system | conditions | how to read | endpoint | value
CC[C@H](C)[C@H](NC(=O)[C@H](CCC(=O)O)NC(=O)[C@H](CCCNC(=N)N)NC(=O)[C@H](CC(C)C)NC(=O)[C@H](CCCCN)NC(=O)CNC(=O)[C@H](CC(C)C)NC(=O)[C@H](Cc1ccccc1)NC(=O)[C@H](CC(N)=O)NC(=O)[C@H](CCCCN)NC(=O)[C@H](C)NC(=O)[C@H](CC(C)C)NC(=O)CNC(=O)[C@H](CO)NC(=O)[C@@H](NC(=O)[C@@H](NC(=O)[C@H](CO)NC(=O)[C@H](CCCNC(=N)N)NC(=O)[C@H](Cc1c[nH]c2ccccc12)NC(=O)[C@H](Cc1ccccc1)NC(=O)[C@H](CCCNC(=N)N)NC(=O)CNC(=O)[C@H](Cc1ccccc1)NC(=O)CN)C(C)C)[C@@H](C)CC)C(=O)N[C@@H](CO)C(=O)N[C@@H](CCC(N)=O)C(=O)N[C@@H](CC(C)C)C(=O)N[C@@H](Cc1ccc(O)cc1)C(=O)O | HUVEC | cytotoxicity, MTT | – | 24 h, 37 °C | – | IC50 | 5.62 µM
C[C@H](NC(=O)Cc1cc(F)cc(F)c1)C(=O)N[C@@H]1C(=O)N(C)c2ccccc2-c2ccccc21 | NHDF | cell viability, CellTiter-Glo | – | 48 h, uninfected | – | CC50 | 49.3 µM
O=C1NC2(CC2)COc2ncc(F)cc2[C@H]2COCCN2c2ccn3ncc1c3n2 | – | – | Sprague-Dawley rat, male, serum | oral, 5 mg/kg/day, 4 weeks daily, end of treatment | – | glucose | 8.6 ± 1.5 mmol/L
